Measured values pooled from the literature.
Protocols differ between the studies behind these lines.
Organism: Staphylococcus aureus

With `NC[C@@H]1O[C@H](O[C@H]2[C@@H](O)[C@H](O[C@@H]3[C@@H](O)[C@H](N)C[C@H](N)[C@H]3O[C@H]3O[C@H](CO)[C@@H](CCO)[C@H](O)[C@H]3N)O[C@@H]2CO)[C@H](N)[C@@H](O)[C@@H]1O` the MIC was 1 µg/mL (methicillin-resistant).
The MIC of `C=CCO[C@H]1[C@H](O)[C@@H](N)[C@@H](O[C@H]2[C@H](O[C@@H]3O[C@H](CO)[C@@H](O[C@H]4O[C@@H](CN)[C@@H](O)[C@H](O)[C@H]4N)[C@H]3O)[C@@H](O)[C@H](N)C[C@@H]2N)O[C@@H]1CO` is reported as 8 to 16 µg/mL (broth microdilution; MRSA isolate AG 038).
`Oc1c(Br)cc(Br)c2nc3cc(Cc4ccccc4)ccc3nc12` gave an MIC of 0.3 µM (broth microdilution; MRSA 1707; 16 h, 37 °C).
The MIC of `O=C1c2ccccc2C(=O)c2c1ccc1c2C(C(=O)Nc2ccc(Cl)cc2)C(=O)C1c1ccccc1` (stereo not drawn) is reported as 64 µg/mL (microbial growth).
With `CN(C)c1cc(CN2CCCCCC2)c(O)c2c1C[C@H]1C[C@H]3[C@H](N(C)C)C(O)=C(C(N)=O)C(=O)[C@@]3(O)C(O)=C1C2=O` the MIC was 1 µg/mL (RN4250, Tet K efflux).
With `CCOC(=O)c1ccc2c(c1)n(CC)[c]([Au-]([Cl])([Cl])[Cl])[n+]2CC` the MIC was 1.8 µM (broth dilution; MRSA DSM 11822; 20 h, 37 °C).
With `O=C1/C(=C(\O)C2CCCCC2)C(=O)[C@@]2(C(=O)OCc3ccc(Br)cc3)CS[C@H](c3ccccc3)N12` the MIC was 0.98 µg/mL (broth dilution; MRSA; with: Fe3+, Ca2+, Mg2+, Zn2+ at blood levels).
`CNC(CC(C)C)C(=O)NC1C(=O)NC(CC(N)=O)C(=O)NC2C(=O)NC3C(=O)NC(C(=O)NC(C(=O)NCCCNC(=N)N)c4cc(O)cc(O)c4-c4cc3ccc4O)C(O)c3ccc(c(Cl)c3)Oc3cc2cc(c3OC2OC(CO)C(O)C(O)C2OC2CC(C)(NCc3ccc(-c4ccc(Cl)cc4)cc3)C(O)C(C)O2)Oc2ccc(cc2Cl)C1O` (stereo not drawn) has an MIC of 0.04 µg/mL (Sensitive ATCC 25923).
`CN(C)c1cc(CNCc2ccccc2)c(O)c2c1C[C@H]1C[C@H]3[C@H](N(C)C)C(O)=C(C(N)=O)C(=O)[C@@]3(O)C(O)=C1C2=O` gave an MIC of 32 µg/mL (MRSA 5, Tet M, 50% mouse serum).
With `NCCn1c(CCCc2ccccc2)nc2cc(Cl)ccc2c1=O` the MIC was 100 µM (broth microdilution; RN6390B).
`Cc1cccc([N+](=O)[O-])c1NC(=O)CSc1nc2ccccc2c(=O)n1-c1ccc(S(N)(=O)=O)cc1` has an MIC of 10 µg/mL (methicillin-resistant; 24 h, 37 °C).
`CC1CCN(CCCN2/C(=C/c3cc(/C=C/c4c[nH]c5ccccc45)[n+](C)c4ccccc34)Sc3ccccc32)CC1` gave an MIC of 16 µg/mL (microbial growth, broth dilution; ATCC29213).
The MIC of `CNCc1cc(N(C)C)c2c(c1O)C(=O)C1=C(O)[C@]3(O)C(=O)C(C(N)=O)=C(O)[C@@H](N(C)C)[C@@H]3C[C@@H]1C2` is reported as 4 µg/mL (MRSA 5, Tet M ribosome protection).
`CNC(CC(C)C)C(=O)NC1C(=O)NC(CC(N)=O)C(=O)NC2C(=O)NC3C(=O)NC(C(=O)NC(C(=O)O)c4cc(O)cc(O)c4-c4cc3ccc4O)C(O)c3ccc(c(Cl)c3)Oc3cc2cc(c3OC2OC(CO)C(O)C(O)C2OC2CC(C)(NC(=O)CCCCCCCC[N+](C)(C)C)C(O)C(C)O2)Oc2ccc(cc2Cl)C1O` (stereo not drawn) has an MIC of 32 µg/mL (agar dilution; MRSA clinical isolate MRSA3).
`CCCCCCCCCCCCCCCC(=O)N(C)[C@H](CO)C(=O)N[C@H](C)C(=O)NCC(=O)N(C)[C@@H]1C(=O)N[C@@H](C)C(=O)N[C@H](C(=O)O)Cc2ccc(O)c(c2)-c2cc1ccc2O[C@@H]1O[C@@H](C)[C@H](O)[C@@H](O)[C@H]1O`: MIC “inactive” (NCTC 8325; cation-adjusted Mueller Hinton II).

Some of these lines once more:
`Oc1c(Br)cc(Br)c2nc3cc(Cc4ccccc4)ccc3nc12` gave an MIC of 0.3 µM (broth microdilution; MRSA 1707; 16 h, 37 °C).
The MIC of `O=C1c2ccccc2C(=O)c2c1ccc1c2C(C(=O)Nc2ccc(Cl)cc2)C(=O)C1c1ccccc1` (stereo not drawn) is reported as 64 µg/mL (microbial growth).
